Experimental data pooled from the literature.
Each line is one published result; not all experiments were run side by side. ± marks the error that the study gave.
Cnr2: Cannabinoid receptor 2 (Cnr2, Mus musculus, UniProt P47936)
Chain of UniProt P47936 (whole entry, looked up): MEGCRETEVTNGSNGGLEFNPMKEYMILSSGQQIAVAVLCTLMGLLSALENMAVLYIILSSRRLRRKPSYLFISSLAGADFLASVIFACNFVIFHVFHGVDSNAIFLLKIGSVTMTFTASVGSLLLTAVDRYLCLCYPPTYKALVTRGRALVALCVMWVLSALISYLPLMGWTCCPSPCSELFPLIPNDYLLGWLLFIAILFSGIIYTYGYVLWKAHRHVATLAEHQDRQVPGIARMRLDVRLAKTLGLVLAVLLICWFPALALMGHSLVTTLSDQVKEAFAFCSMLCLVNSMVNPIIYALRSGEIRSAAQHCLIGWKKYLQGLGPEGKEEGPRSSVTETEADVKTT
Dipeptidyl peptidase 8: Dipeptidyl peptidase 8 (Homo sapiens, UniProt Q6V1X1)
Chain of UniProt Q6V1X1 (whole entry, looked up): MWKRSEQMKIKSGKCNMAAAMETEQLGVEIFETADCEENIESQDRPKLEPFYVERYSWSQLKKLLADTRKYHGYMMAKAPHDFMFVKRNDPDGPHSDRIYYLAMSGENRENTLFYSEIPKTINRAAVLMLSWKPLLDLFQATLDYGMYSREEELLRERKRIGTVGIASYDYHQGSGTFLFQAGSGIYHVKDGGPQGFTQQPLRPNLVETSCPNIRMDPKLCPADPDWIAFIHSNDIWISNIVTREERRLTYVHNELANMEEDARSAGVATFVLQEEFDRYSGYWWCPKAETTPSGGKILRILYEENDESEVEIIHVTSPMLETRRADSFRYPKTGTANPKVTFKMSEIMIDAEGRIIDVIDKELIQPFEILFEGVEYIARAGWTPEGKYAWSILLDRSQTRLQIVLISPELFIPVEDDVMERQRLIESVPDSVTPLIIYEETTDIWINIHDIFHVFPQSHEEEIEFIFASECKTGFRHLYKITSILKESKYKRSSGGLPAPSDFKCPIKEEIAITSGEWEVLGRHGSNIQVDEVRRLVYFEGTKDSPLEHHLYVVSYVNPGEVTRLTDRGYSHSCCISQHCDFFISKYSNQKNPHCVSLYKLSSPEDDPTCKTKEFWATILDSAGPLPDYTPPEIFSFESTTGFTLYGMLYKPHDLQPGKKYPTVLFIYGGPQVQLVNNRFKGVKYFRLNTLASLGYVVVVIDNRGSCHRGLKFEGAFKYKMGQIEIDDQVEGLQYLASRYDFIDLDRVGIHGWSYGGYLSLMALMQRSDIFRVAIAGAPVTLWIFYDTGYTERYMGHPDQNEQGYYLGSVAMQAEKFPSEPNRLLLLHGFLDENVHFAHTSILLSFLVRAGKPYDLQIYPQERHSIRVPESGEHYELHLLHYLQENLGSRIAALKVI
POLB: DNA polymerase beta (POLB, Homo sapiens, UniProt P06746)
HTR1A: 5-hydroxytryptamine receptor 1A (HTR1A, Homo sapiens, UniProt P08908)
Chain of UniProt P08908 (whole entry, looked up): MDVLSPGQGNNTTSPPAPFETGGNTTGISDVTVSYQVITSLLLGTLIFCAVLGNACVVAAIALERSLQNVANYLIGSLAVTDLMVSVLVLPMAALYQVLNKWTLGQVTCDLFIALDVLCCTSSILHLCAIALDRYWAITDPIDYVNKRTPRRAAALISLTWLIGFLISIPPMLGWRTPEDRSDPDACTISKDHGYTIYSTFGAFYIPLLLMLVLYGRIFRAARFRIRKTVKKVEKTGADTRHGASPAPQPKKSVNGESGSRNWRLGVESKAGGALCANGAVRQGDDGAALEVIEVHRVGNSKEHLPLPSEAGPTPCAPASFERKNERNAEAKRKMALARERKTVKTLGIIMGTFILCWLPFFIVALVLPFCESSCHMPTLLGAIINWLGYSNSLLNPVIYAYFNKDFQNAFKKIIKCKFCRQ
STING1 H232R: Stimulator of interferon genes protein (STING1, Homo sapiens, UniProt Q86WV6, H232R)
Chain of UniProt Q86WV6 (whole entry, unmodified, looked up): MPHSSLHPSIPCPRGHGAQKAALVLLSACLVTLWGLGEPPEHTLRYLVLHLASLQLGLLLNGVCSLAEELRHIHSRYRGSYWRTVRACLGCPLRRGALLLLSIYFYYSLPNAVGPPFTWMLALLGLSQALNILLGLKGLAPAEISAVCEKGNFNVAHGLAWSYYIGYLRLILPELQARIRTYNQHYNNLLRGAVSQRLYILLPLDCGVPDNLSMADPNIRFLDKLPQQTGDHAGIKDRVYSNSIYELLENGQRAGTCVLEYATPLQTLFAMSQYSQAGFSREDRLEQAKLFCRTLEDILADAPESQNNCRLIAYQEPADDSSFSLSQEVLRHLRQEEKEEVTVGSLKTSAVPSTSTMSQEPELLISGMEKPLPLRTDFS
Urease: Urease (Canavalia ensiformis, UniProt P07374)
Chain of UniProt P07374 (whole entry, looked up): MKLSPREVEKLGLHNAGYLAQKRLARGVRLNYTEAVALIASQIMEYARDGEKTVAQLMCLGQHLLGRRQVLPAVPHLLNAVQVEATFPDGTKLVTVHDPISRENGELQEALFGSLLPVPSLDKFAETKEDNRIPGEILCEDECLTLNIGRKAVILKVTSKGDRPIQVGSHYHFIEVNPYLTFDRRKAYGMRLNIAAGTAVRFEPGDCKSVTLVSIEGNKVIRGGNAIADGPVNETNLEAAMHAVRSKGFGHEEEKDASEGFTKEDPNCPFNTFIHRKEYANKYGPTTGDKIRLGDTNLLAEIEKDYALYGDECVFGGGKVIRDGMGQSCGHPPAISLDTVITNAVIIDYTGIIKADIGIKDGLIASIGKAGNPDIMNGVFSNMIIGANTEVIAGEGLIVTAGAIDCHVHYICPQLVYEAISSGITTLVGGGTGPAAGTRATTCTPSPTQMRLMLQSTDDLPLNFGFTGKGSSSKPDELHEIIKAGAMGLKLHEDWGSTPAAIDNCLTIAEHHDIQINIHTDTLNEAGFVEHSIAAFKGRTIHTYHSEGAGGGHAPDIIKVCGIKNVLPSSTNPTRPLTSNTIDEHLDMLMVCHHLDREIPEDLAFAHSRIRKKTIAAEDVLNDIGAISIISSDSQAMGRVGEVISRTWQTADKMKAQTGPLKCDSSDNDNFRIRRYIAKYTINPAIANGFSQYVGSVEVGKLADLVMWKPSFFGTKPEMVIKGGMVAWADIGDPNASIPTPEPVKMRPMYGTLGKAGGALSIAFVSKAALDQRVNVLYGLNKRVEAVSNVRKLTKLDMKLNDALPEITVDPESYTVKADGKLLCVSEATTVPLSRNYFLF
CA1: Carbonic anhydrase 1 (CA1, Homo sapiens, UniProt P00915)
Chain of UniProt P00915 (whole entry, looked up): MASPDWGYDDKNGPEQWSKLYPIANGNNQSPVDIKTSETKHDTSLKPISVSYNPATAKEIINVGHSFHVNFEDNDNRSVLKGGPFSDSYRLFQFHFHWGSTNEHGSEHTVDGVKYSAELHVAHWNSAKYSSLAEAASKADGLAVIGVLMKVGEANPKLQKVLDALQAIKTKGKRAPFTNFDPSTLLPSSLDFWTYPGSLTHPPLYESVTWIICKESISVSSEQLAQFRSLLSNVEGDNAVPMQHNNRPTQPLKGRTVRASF
Chain of UniProt P11086 (whole entry, looked up): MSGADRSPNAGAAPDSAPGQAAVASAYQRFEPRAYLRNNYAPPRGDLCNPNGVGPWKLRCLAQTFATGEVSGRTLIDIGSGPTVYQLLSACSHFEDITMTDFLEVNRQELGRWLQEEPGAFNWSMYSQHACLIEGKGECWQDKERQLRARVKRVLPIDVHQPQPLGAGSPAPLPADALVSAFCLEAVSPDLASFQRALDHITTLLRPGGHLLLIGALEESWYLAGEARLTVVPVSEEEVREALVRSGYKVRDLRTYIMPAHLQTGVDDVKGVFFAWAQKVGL
Chain of UniProt P09958 (whole entry, looked up): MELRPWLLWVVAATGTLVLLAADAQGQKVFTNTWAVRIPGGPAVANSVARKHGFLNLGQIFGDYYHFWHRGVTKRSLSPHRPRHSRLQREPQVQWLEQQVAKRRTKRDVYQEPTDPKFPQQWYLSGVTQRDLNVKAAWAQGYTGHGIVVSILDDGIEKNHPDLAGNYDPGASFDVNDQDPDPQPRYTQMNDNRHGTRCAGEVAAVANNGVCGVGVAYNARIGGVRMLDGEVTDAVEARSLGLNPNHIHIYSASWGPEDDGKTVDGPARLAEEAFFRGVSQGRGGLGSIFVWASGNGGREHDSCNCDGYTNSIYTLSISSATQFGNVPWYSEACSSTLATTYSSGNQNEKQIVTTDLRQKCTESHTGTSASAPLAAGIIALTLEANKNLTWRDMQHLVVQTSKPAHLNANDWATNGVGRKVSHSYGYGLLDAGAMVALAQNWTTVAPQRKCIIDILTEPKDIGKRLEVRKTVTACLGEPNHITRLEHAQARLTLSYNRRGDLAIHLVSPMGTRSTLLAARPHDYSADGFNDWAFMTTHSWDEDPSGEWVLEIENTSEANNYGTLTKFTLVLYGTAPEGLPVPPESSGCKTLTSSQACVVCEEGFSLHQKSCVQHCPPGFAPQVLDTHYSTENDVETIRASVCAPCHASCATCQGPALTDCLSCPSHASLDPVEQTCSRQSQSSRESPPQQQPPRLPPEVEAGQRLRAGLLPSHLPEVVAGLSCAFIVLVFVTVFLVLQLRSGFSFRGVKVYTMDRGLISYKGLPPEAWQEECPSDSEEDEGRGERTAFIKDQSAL
Chain of UniProt P45983 (whole entry, looked up): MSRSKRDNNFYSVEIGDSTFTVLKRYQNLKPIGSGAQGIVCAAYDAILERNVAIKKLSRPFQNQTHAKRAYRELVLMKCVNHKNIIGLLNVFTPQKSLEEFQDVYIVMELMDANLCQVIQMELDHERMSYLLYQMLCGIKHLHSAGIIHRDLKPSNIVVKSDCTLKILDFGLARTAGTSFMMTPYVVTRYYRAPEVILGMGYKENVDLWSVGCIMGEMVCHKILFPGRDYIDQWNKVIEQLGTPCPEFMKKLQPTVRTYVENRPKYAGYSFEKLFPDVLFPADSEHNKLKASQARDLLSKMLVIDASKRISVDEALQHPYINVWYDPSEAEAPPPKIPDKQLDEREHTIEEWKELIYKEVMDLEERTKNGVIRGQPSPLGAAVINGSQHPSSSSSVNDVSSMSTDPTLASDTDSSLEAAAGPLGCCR

CCOC(=O)C(CC)(CCCSCCOCCNC(=O)OC(C)(C)C)NC(=O)c1ccc(C2CC2)c(Cc2ccc(F)cc2)n1 (stereo not shown) — Ki (Cnr2; ligand displacement, radioligand; cell membranes): 389 nM
CCC1(CC)C(=O)N(c2cccc(CCC(=O)O)c2)C1=O — Ki (Dipeptidyl peptidase 8; enzyme activity, inhibitor, fluorescence): 316 nM
O=C(NCCCOP(=O)(O)OP(=O)(O)OP(=O)(O)O)OCC1c2ccccc2-c2ccccc21 — Ki (POLB; enzyme activity, inhibitor, radiometric): 63000 nM
COC1CN([C@H]2CC[C@H]([C@@]3(C)Oc4c(Cl)cc(C(=O)NCc5c(SC)cc(C)[nH]c5=O)c(C)c4O3)CC2)C1 — log2 fold change (RNA-seq, refers to: MAP7; human, whole blood; dose not given, 24 h; reference: pretreatment baseline): 1.43
O=C(NCCOP(=O)(O)OP(=O)(O)OP(=O)(O)O)OCC1c2ccccc2-c2ccccc21 — Ki (POLB; DNA polymerase activity, inhibitor; added: 1 mM Mg2+, poly(dA)/oligo(dT)): > 400000 nM
Cn1ccc2c(N3CCN(CCCCOc4ccc5c(c4)NC(=O)CC5)CC3)cccc21 — Ki (HTR1A; ligand displacement, radioligand): 63 nM
O=C1N(c2cccc(CN3CCN(Cc4ccc(Br)cc4)CC3)c2)C(=O)C12CCCCC2 — Ki (Dipeptidyl peptidase 8; enzyme activity, inhibitor, fluorescence): 17.7 nM
CC(C)[C@H](NC(=O)[C@H](CCCNC(=N)N)NC(=O)Cc1ccc(CNC(=N)N)cc1)C(=O)N[C@@H](CCCNC(=N)N)C(=O)NCc1ccc(C(=N)N)cc1 — Ki (Furin (FURIN, Homo sapiens, UniProt P09958); enzyme activity, inhibitor; added: Pyr-RTKR-AMC 12.5 µM): 0.0097 nM
CCC1(CC)C(=O)N(c2cc(C(=O)OC)cc(C(=O)N3CCN(Cc4ccc(Br)cc4)CC3)c2)C1=O — Ki (Dipeptidyl peptidase 8; enzyme activity, inhibitor, fluorescence): 30 nM
CCOC(=O)[C@@](CC)(CCCSCCOCCOCCN)NC(=O)c1ccc(C2CC2)c(Cc2ccc(F)cc2)n1 — Ki (Cnr2; ligand displacement, radioligand; cell membranes): 13 nM
CSCc1cn(-c2cccc(C(=O)N3CCC(c4nc(-c5ccccc5)n[nH]4)CC3)c2)nn1 — Ki (FSP1, ancestral; NADH oxidase activity, inhibitor; pH 7.2, added: varying NADH, no coenzyme Q1): no inhibition
Cc1ncsc1-c1ccc(C(C)NC(=O)C2CC(O)CN2C(=O)C(NC(=O)CCCCCCCCCCN2CCCC(Nc3ncc(Cl)c(Nc4ccccc4S(=O)(=O)C(C)C)n3)C2)C(C)(C)C)cc1 (stereo not shown) — log2 fold change (22Rv1; RNA-seq, refers to: RIMS1 mRNA; concentration not given; reference: DMSO): -1.11
O=C(NCC[C@H](NC(=O)c1ncc(-c2ccccc2)o1)c1nc2ccccc2[nH]1)c1ccc([N+](=O)[O-])o1 — EC50 (STING1 H232R; reporter gene, inhibitor; THP1-Dual KI-hSTING-R232; 24 h, 1 h preincubation, added: diABZI 500 nM): 10500 nM
CCOC(=O)C(CC)(CCCSCCOCCN)NC(=O)c1ccc(C2CC2)c(Cc2ccc(F)cc2)n1 (stereo not shown) — Ki (Cnr2; ligand displacement, radioligand; cell membranes): 10 nM
CCc1c(Cl)cccc1N1CCN(C[C@@H](F)CCNC(=O)c2cc3ccccc3[nH]2)CC1 — Ki (HTR1A; ligand displacement, radioligand; cell membranes): 754 nM
Clc1cccc(-c2cc(CN3c4ccccc4C=Cc4ccccc43)on2)c1 — Ki (Urease; enzyme activity, inhibitor): 5360 nM
O=C(N[C@@H](CCNC(=O)c1ccc([N+](=O)[O-])o1)c1nc2ccccc2[nH]1)c1cn(-c2ccccc2)cn1 — EC50 (STING1 H232R; reporter gene, inhibitor; THP1-Dual KI-hSTING-R232; 24 h, 1 h preincubation, added: diABZI 500 nM): 19100 nM
CCCCn1c(SCC(N)=O)nc2c1c(=O)[nH]c(=O)n2C — Ki (Aminoglycoside phosphotransferase APH(2'')-IVa (Enterococcus casseliflavus, UniProt O68183); enzyme activity, inhibitor, quench-flow HPLC kinetics; added: 400 µM ATP, 100 µM gentamicin): 16000 ± 14000 nM
CCCC1(CC)C(=O)N(c2cccc(CN3CCN(Cc4ccc(Br)cc4)CC3)c2)C1=O — Ki (Dipeptidyl peptidase 8; enzyme activity, inhibitor, fluorescence): 74.9 nM
CC(C)=CCc1cc(C(=O)/C=C/c2ccc(O)cc2)c(O)cc1O — substrate inhibition constant (phase I metabolism, substrate; monkey liver microsomes): 29.6 ± 5.71 µM
CCOC(=O)C(CC)(CCCSCCCCCCNc1ccc([N+](=O)[O-])c2nonc12)NC(=O)c1ccc(C2CC2)c(Cc2ccc(F)cc2)n1 (stereo not shown) — Ki (Cnr2; ligand displacement, radioligand; cell membranes): 144 nM
CCCCCCCCCCCC(=O)NC1CCOC1=O (stereo not shown) — Ki (CA1; enzyme activity, inhibitor, stopped-flow): 82000 nM
CCOC(=O)C(CC)(CCCSCCCCCCNC(=O)OC(C)(C)C)NC(=O)c1ccc(C2CC2)c(Cc2ccc(F)cc2)n1 (stereo not shown) — Ki (Cnr2; ligand displacement, radioligand; cell membranes): 367 nM
Cc1c(Cl)c(=O)oc2cc(OCCCCCCSC#N)ccc12 — Ki (CA1; enzyme activity, inhibitor, stopped-flow): > 100000 nM
Nc1ncnc2c1ncn2C1OC(CN(CCCC2CNCc3c2ccc(Cl)c3Cl)CCC(N)C(=O)O)C(O)C1O (mixture of isomers) — Ki (Phenylethanolamine N-methyltransferase (PNMT, Homo sapiens, UniProt P11086); enzyme activity, inhibitor, radiolabel; pH 8.0, added: [3H-methyl]SAM): 12 nM
Cc1cccc(-c2cc(CN3c4ccccc4C=Cc4ccccc43)on2)c1 — Ki (Urease; enzyme activity, inhibitor): 6350 nM
N#C[Se]CCCCCCOc1ccc2c(-c3ccccc3)cc(=O)oc2c1 — Ki (CA1; enzyme activity, inhibitor, stopped-flow): > 100000 nM
CCOC(=O)C(CC)(CCCSCCOCCOCCOCCOCCNc1ccc([N+](=O)[O-])c2nonc12)NC(=O)c1ccc(C2CC2)c(Cc2ccc(F)cc2)n1 (stereo not shown) — Ki (Cnr2; ligand displacement, radioligand; cell membranes): 118 nM
CCC1(CC)C(=O)N(c2ccc(CC(=O)O)cc2)C1=O — Ki (Dipeptidyl peptidase 8; enzyme activity, inhibitor, fluorescence): 440 nM
CCCCC1CCC(=O)O1 (stereo not shown) — Ki (CA1; enzyme activity, inhibitor, stopped-flow): 84000 nM
Cc1cc(NC(=O)c2cccc(NC(=O)/C(C#N)=C/C(C)(C)C)c2)ccc1Nc1nccc(-c2cccnc2)n1 — Ki (Mitogen-activated protein kinase 8 (MAPK8, Homo sapiens, UniProt P45983); SPR two-step binding model; wild-type protein surface): 20.6 nM
CCCCCCC1CCCC(=O)O1 (stereo not shown) — Ki (CA1; enzyme activity, inhibitor, stopped-flow): 58600 nM
CCOc1cc(-c2cc(CN3c4ccccc4C=Cc4ccccc43)on2)ccc1Cl — Ki (Urease; enzyme activity, inhibitor): 24400 nM
O=C(c1cccc(N=Nc2ccc(OC3CC(N4CCCCC4)C3)cc2)c1)N1CCCC1 (stereo not shown) — Ki (Histamine H2 receptor (HRH2, Homo sapiens, UniProt P25021); ligand displacement, radioligand): > 10000 nM
CCOc1ccc(-c2cc(CN3c4ccccc4C=Cc4ccccc43)on2)cc1 — Ki (Urease; enzyme activity, inhibitor): 2010 nM
CCOC(=O)[C@](CC)(CCCSCCOCCOCCNC(=O)OC(C)(C)C)NC(=O)c1ccc(C2CC2)c(Cc2ccc(F)cc2)n1 — Ki (Cnr2; ligand displacement, radioligand; cell membranes): 64 nM
Clc1ccc(-c2cc(CN3c4ccccc4C=Cc4ccccc43)on2)cc1 — Ki (Urease; enzyme activity, inhibitor): 5060 nM
O=P(O)(O)OP(=O)(O)OP(=O)(O)OCCCCO — Ki (POLB; DNA polymerase activity, inhibitor; added: 1 mM Mn2+, poly(dA)/oligo(dT)): 39000 nM
CCC1(CC)C(=O)N(c2cccc(C(=O)N3CCN(Cc4ccc(Br)cc4)CC3)c2)C1=O — Ki (Dipeptidyl peptidase 8; enzyme activity, inhibitor, fluorescence): 9.5 nM
N#Cc1cccc(-c2cc(CN3c4ccccc4C=Cc4ccccc43)on2)c1 — Ki (Urease; enzyme activity, inhibitor): 6280 nM

Some of these lines once more:
CSCc1cn(-c2cccc(C(=O)N3CCC(c4nc(-c5ccccc5)n[nH]4)CC3)c2)nn1 — Ki (FSP1, ancestral; NADH oxidase activity, inhibitor; pH 7.2, added: varying NADH, no coenzyme Q1): no inhibition
Cc1ncsc1-c1ccc(C(C)NC(=O)C2CC(O)CN2C(=O)C(NC(=O)CCCCCCCCCCN2CCCC(Nc3ncc(Cl)c(Nc4ccccc4S(=O)(=O)C(C)C)n3)C2)C(C)(C)C)cc1 (stereo not shown) — log2 fold change (22Rv1; RNA-seq, refers to: RIMS1 mRNA; concentration not given; reference: DMSO): -1.11
O=C(NCC[C@H](NC(=O)c1ncc(-c2ccccc2)o1)c1nc2ccccc2[nH]1)c1ccc([N+](=O)[O-])o1 — EC50 (STING1 H232R; reporter gene, inhibitor; THP1-Dual KI-hSTING-R232; 24 h, 1 h preincubation, added: diABZI 500 nM): 10500 nM
CCOC(=O)C(CC)(CCCSCCOCCN)NC(=O)c1ccc(C2CC2)c(Cc2ccc(F)cc2)n1 (stereo not shown) — Ki (Cnr2; ligand displacement, radioligand; cell membranes): 10 nM
CCc1c(Cl)cccc1N1CCN(C[C@@H](F)CCNC(=O)c2cc3ccccc3[nH]2)CC1 — Ki (HTR1A; ligand displacement, radioligand; cell membranes): 754 nM
Clc1cccc(-c2cc(CN3c4ccccc4C=Cc4ccccc43)on2)c1 — Ki (Urease; enzyme activity, inhibitor): 5360 nM
